{"data": "Measurements of several laboratories", "target": "Metallo-beta-lactamase type 2 (blaNDM-1, Klebsiella pneumoniae, UniProt C7C422)", "effect on": "enzyme activity", "mode": "inhibitor", "note": "Compare with care: the assays were run in different laboratories. ± marks the error that the study gave.", "UniProt C7C422, sequence (whole entry, looked up)": "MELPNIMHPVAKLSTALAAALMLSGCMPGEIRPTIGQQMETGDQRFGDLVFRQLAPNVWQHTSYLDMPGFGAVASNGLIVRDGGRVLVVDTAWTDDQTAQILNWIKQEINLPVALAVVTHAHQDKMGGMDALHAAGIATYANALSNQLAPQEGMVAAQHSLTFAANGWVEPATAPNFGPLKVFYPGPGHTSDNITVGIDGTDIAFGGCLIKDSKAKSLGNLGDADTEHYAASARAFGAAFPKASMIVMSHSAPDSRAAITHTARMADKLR"}
{"Compound": "C[C@H](CS)C(=O)Nc1cccc(-c2nn[nH]n2)c1", "test": "fluorescence", "setting": "with preincubation", "IC50": "0.396 µM"}
{"Compound": "O=C(O)CNCP(=O)(O)O", "test": "fluorescence", "IC50": "75 µM"}
{"Compound": "Cn1nnc(-c2ccccc2NC(=O)CCS)n1", "test": "fluorescence", "setting": "with preincubation", "IC50": "19.5 µM"}
{"Compound": "O=C(O)CC(O)(CC(=O)O)C(=O)O", "test": "fluorescence", "IC50": "132 µM"}
{"Compound": "CC(C)Cn1nnc(-c2ccccc2NC(=O)[C@H](C)CS)n1", "test": "fluorescence", "setting": "with preincubation", "IC50": "2.59 µM"}
{"Compound": "O=C(O)CCc1c(C(=O)O)[nH]c2ccccc12", "test": "fluorescence", "setting": "with preincubation", "IC50": "0.67 µM"}
{"Compound": "CCCn1nnc(-c2ccccc2NC(=O)[C@H](C)CS)n1", "test": "fluorescence", "setting": "with preincubation", "IC50": "0.83 µM"}
{"Compound": "O=C(O)C(c1ccccc1)n1cnnn1 (stereo not drawn)", "test": "fluorescence", "setting": "with preincubation", "IC50": "> 1000 µM"}
{"Compound": "N[C@@H](CN[C@@H](CN[C@@H](CC(=O)O)C(=O)O)C(=O)O)C(=O)O", "setting": "Zn2+ 10 µM supplemented", "IC50": "13 ± 0.2 µM"}
{"Compound": "CC(C)Cc1cc(C(=O)O)nc2[nH][nH]c(=O)c12", "test": "fluorescence", "setting": "with preincubation", "IC50": "> 1000 µM"}
{"Compound": "CCCn1nnc(-c2cccc(NC(=O)[C@H](C)CS)c2)n1", "test": "fluorescence", "setting": "with preincubation", "IC50": "2.37 µM"}
{"Compound": "O=C(O)c1nccn1Cc1ccccc1", "test": "fluorescence", "setting": "with preincubation", "IC50": "66.7 µM"}
{"Compound": "CN[C@H](CC(C)C)C(=O)N[C@H]1C(=O)N[C@@H](CC(N)=O)C(=O)N[C@H]2C(=O)N[C@H]3C(=O)N[C@H](C(=O)N[C@H](C(=O)O)c4cc(O)cc(O)c4-c4cc3ccc4O)[C@H](O)c3ccc(c(Cl)c3)Oc3cc2cc(c3O[C@@H]2O[C@H](CO)[C@@H](O)[C@H](O)[C@H]2O[C@H]2C[C@](C)(NCc3ccc(C(=O)OCCCCCCN(Cc4ccccn4)Cc4ccccn4)cc3)[C@H](O)[C@H](C)O2)Oc2ccc(cc2Cl)[C@H]1O", "test": "absorbance", "IC50": "0.6 µM"}
{"Compound": "NC(=O)CN(CC(=O)O)CC(=O)O", "test": "fluorescence", "IC50": "2.3 µM"}
{"Compound": "CN(C)c1ccc2c(c1)C(=O)N(C(CS)C(N)=O)C2=O (stereo not drawn)", "setting": "pH 7", "IC50": "10 µM"}
{"note": "Excerpt of the above:"}
{"Compound": "N[C@@H](CN[C@@H](CN[C@@H](CC(=O)O)C(=O)O)C(=O)O)C(=O)O", "setting": "Zn2+ 10 µM supplemented", "IC50": "13 ± 0.2 µM"}
